Assay results of several laboratories.
Parts stem from different laboratories: compare values within a part only.

Sample 1 — technique: RNA Bind-n-Seq; molecule type: RNA; sample: in vitro; tested at: 365 nM; baseline: no-protein control; direction: higher = stronger binding
Target: RNA binding protein fox-1 homolog 2, RRM domain, GST-SBP tag (RBFOX2, Homo sapiens, UniProt O43251-10, residues 100-194)
Setting: natural RNA segment, single round, ends assumed
Construct (chain): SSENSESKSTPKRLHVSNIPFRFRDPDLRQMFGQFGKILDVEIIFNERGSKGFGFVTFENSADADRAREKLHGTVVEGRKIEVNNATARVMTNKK
Oligonucleotide | RBNS enrichment (R)
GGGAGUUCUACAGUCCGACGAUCGCCUCUGGUUACACAUAUUUUAGGCUUUUUUUCCCCCUGAAAUUGUACUUACUGAGGUCCAUGUAUUAAUAAGAGGUCAGUCUGUACAAAAAUCUAAAGAUUUUUUCACUUGGAAUUCUCGGGUGCCAA | 0.344
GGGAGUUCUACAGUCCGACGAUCCCUUUGCACUGAGGACACAGAUCCCGGGGAGCUGUGAGGGCCACCGGUGGGCAGUGGGUGGAUCCUGGUUUCGUGUGCUGCCCAUGCACCUUCCAGCCCGGGGCCAGCUUUGGAAUUCUCGGGUGCCAA | 0.468
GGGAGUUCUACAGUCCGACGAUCUCCGCUCCCCCCACAUCCCAGCCUGGACUUCUCCUGAGUAUGGGGCUUUUUCUGGCAGCCAGAAGCCAAUGCUUAUGCAGGCUCCCGCAUCUCAGCCAGAGGCCAGAUGUUGGAAUUCUCGGGUGCCAA | 0.525
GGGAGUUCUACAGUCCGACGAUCAAGACUACUGGACUUCUAUCAAUGGUACUCUAAUCAGUCCUUAUUAUCCCAGCUUGCUGAGGGGCAGGGAGAGCGCCUCUUCCUCUGGGCAGCGCUAUCUAGAUAGGUAAUGGAAUUCUCGGGUGCCAA | 0.325
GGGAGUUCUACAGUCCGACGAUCCAUUUCCCAGGUUAUGCUCUUUUCUUUCUCAGGGUCCUCUUUGGUGGGCAGCCACUCCCCGAGAUGUUGCCAUCAGUUUUCUGCAGUCCAAAGAGGGUAUGGUUAGGUACUGGAAUUCUCGGGUGCCAA | 0.447
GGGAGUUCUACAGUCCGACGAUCAUUCUUGUAUUUAUGUGAGACUUGCCCAUCUACUGUCUUGGCUGUGUCUUGCCUUUUAAUCAUGAACAGUUACAUGAUUUAUAAUUUCACUGAUUGAGAUUACUUUGUAAUGGAAUUCUCGGGUGCCAA | 0.447
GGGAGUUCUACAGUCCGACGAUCACUAUGUAAUAAAUGGUUAACUUUCAAAUGAUGCUGCUGCCAAAAUUAUAUUAAUAGUGAGUUUCAGGCCCCUGGGCAUUUUGUACCAUGUAAUUAUCCUCUGGUGAUGCUGGAAUUCUCGGGUGCCAA | 0.466
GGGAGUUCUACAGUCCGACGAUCUAUGUCUCCAGUUGGCAGCUUGAGAUAUUUCCGAGCAUCCGGUUCUAGCUACCAGUGCCUCCCAAUGCUUAGUGCACAGUACUGUAGACUGGCCAUCACCCCUCUCCUUGUGGAAUUCUCGGGUGCCAA | 0.372
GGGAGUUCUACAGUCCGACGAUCGCAGAGUUGGGUGCUAAGAUCCUGAGGAGCUCGAGGUUUCGAGCUGGCUUUAGACAUUGGUGGGACCAAGGAUGUUUUGCAGGAUGCCCUGAUCCUAAGAAGGGGGCCUGUGGAAUUCUCGGGUGCCAA | 0.508

Sample 2 — technique: RNA Bind-n-Seq; molecule type: RNA; sample: in vitro; tested at: 1 µM; setting: whole 134-nt RNA, ends assumed; together with: 150 mM KCl; baseline: input library; direction: higher = stronger binding
Target: Ras GTPase-activating protein-binding protein 1, C-terminal RGG region (G3BP1, Homo sapiens, UniProt Q13283)
UniProt Q13283, sequence (whole entry, looked up): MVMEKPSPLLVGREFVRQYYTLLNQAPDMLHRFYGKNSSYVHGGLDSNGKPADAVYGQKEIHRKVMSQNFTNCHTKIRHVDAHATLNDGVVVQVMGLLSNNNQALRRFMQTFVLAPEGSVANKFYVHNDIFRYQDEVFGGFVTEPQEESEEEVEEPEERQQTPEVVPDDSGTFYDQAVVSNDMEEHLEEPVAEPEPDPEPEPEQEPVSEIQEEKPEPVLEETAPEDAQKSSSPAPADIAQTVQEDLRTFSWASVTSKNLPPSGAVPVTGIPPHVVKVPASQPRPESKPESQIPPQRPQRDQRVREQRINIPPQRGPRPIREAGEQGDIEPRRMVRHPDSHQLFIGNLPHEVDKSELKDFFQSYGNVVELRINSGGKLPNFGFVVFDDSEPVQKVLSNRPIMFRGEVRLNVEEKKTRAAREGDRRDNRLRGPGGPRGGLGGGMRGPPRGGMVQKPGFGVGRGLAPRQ
Oligonucleotide | log2 enrichment
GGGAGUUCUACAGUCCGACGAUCCUCAAGUCCUGUGCUACACAUCGUAUGUACCGAAUCGGGUGGGUUUGGGUGGGAAAGUAUUAUGUUACGCCGUUCGGAUCUGCACUUCCAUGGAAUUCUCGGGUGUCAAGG | 1.99
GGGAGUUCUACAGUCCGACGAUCUGGGAGGUGGAUUUUGUUUAUUUUUUUAGCUCAUUUCCAGGGGUGGGAAUUUUUUUUUUAUAUGUGUCAUGAAUAAAGUUGUUUUUGAAAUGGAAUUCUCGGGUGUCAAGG | 3.62
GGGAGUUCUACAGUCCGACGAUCUUCCUUCCACGACCCCUGAAGAGCAGCGGUGGGUCUGAGCAUCCUAUCUCCAGGAAGCAGGCCAGCAGGCAAGCCAGCUGCCACCUCGUCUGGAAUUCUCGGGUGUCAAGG | -0.212
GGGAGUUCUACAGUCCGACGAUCUGGGAGGUGGAUUUUGUUUAUUUUUUUAGCUCAUUUCCAGGGGUGGGAAUUUUUUUUUAAUAUGUGUCAUGAAUAAAGUAGUUUUUGAAAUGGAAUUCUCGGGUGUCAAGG | 3.21
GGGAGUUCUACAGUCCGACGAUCAGUCCUGUGCUACACAUCGUAUGUACCGAAUCGGGUUUGGGUUUGGGAAAAAAAGGGAAAGUAUUAUGUUACGCCGUUCGGAUCUGCACUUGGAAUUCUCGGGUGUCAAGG | 0.222
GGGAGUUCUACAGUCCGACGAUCACCAUGCAGGUGGGCAUCUUUGGGAAGUGGGGCAAGGGGGGGAUAGGGAGGGGGGUAACACUUUGGGAACAGGUGGUCCCAGGUCGUUUCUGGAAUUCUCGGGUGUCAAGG | -1.18
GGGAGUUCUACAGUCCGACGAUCAAGUCCUGUGCUACACAUCGUAUGUACCGAAUCAAACCCAAACCCCCAAAUUUAAAAAAGUAUUAUGUUACGCCGUUCGGAUCUGCACUUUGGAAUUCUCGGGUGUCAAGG | -0.884
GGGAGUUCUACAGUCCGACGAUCGCAGGAAGUAAAAACAAAUGGAAAUGCUUCGGAUAGUGGCAGGGGUGAGGGUUGCUAAGGAAAGGGUGGGAUGGGAGUGGGUAAAGAGUUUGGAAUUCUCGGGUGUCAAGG | 0.361

Sample 3 — technique: protein binding microarray; molecule type: double-stranded DNA, one strand shown; sample: in vitro; tested at: not given; baseline: not given; direction: higher = stronger binding
Target: Histone acetyltransferase KAT6A, winged helix 1, GST fusion (KAT6A, Homo sapiens, UniProt Q92794, residues 1-85)
Setting: 8-mer, flanks averaged, mean of 2 arrays, mostly near background
Residues (chain): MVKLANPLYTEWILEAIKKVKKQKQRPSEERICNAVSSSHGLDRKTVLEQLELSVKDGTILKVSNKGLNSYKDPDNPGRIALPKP
Oligonucleotide | E-score
AAAGGCTC | -0.115
CCTGCGAA | -0.14
GCTCACCA | -0.033
CAACCCCC | -0.101
ATCGACGA | -0.0654
GCCCTGGA | -0.0845
GGGCTCGA | 0.0672
ATCATCAT | -0.0966
GCCTTCAA | -0.0367
GGCGTGAC | 0.121
CATATCCA | 0.0107
ACTGGATA | -0.273

Mixed results
Molecule | target | assay | test system | setting | scale | endpoint | result
PhoQ, residues 284 288 289 292 302 303 AEGLLW | PhoP, residues 12 14 15 18 19 LQHIR (Escherichia coli, UniProt P23836) | Sort-seq, item: YFP reporter | E. coli | PhoQ-PhoP variant library, together with: 10 µM Mg2+ | baseline: high Mg2+ state, higher = stronger signaling | fold induction | 2.91
